Measurements from different studies.
A part holds a random share of what one study measured. Substitutions count along the parent as printed.

Set 1
Target: ATF7, bZIP domain (human)
Method: DHFR protein complementation
Matrix: yeast
Notes: single substitutions, most at no-binding floor
Relative to: wild-type JUN-FOS pair
Reading: higher = stronger binding
Starting sequence: JUN, bZIP domain (human); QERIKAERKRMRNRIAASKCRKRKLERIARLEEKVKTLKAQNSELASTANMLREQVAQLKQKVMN; partner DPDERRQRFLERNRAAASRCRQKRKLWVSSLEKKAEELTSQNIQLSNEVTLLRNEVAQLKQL
Change	binding fitness
K39Y	-1.24 natural log
A46T	-0.784 natural log
L45N	-1.48 natural log
L52M	-1.47 natural log
N42E	-1.42 natural log
E32S	-1.2 natural log
Q58P	-1.31 natural log
A40L	-1.04 natural log
V56K	-1.39 natural log
K34E	-1.28 natural log
Q55K	-1.19 natural log
E54G	-1.16 natural log
K36G	-1.2 natural log
R53Y	-1.49 natural log
E32T	-1.11 natural log
L31D	-1.45 natural log
E33G	-1.19 natural log

Set 2
Target: Hepatocyte nuclear factor 3-beta, forkhead domain (FOXA2, Homo sapiens, UniProt Q9Y261, residues 142-269)
Method: protein-binding microarray
Molecule type: double-stranded DNA, one strand shown
Matrix: in vitro
Concentration: not given
Notes: k-mer, scored over probes, only values ≥0.25
Reading: higher = stronger binding
Target sequence (chain): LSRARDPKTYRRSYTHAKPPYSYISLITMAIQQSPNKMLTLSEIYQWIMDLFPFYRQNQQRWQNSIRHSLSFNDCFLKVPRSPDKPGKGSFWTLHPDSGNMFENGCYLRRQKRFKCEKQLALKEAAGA
Sequence	E-score
ACACGACA	0.257
AGTTGATA	0.357
TGTAGACA	0.325
ACGTAATA	0.303
TAGGATAA	0.282
CTACAAAC	0.285
AACAGAAA	0.289
CGTAATTA	0.296
CATACAAC	0.313
AATATAGG	0.254
CATGATCA	0.256
ATATCTCA	0.331
CATTGAAA	0.253
ATAACAGA	0.358
AGGTCAAC	0.262
AGGTATTA	0.278
ATCCGTAC	0.274
GATGAATA	0.332
ATGTCAAT	0.28
GACATTAA	0.251
GTACAAAA	0.27
AGTATCTA	0.362
TGATAACA	0.301
TACAGTCA	0.312

Set 3
Target: CCNB2, cyclin fold, Cln2 fusion (human)
Method: yeast growth competition, sequencing
Matrix: yeast
Notes: weak parent motif
Relative to: not given
Reading: higher = stronger binding
Starting sequence: RBL1 docking peptide (human); GSAKRRLFGEDPP; partner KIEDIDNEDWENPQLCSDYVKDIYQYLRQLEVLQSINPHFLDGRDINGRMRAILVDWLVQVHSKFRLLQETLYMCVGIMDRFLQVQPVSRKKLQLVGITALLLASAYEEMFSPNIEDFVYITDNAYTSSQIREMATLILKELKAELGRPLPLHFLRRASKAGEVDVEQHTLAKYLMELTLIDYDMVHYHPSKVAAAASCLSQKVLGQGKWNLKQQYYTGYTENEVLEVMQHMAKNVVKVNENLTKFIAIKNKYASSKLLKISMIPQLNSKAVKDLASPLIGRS
Change	normalised enrichment score
GAAKRRLFGEDPP [S2A]	0.648
GSAKPRLFGEDPP [R5P]	0.0951
GSAKRRLFGEDPQ [P13Q]	-0.276
GSRKRRLFGEDPP [A3R]	0.231
GSAKDRLFGEDPP [R5D]	-0.259
GSVKRRLFGEDPP [A3V]	0.924
GSAKRILFGEDPP [R6I]	-0.46
GSAVRRLFGEDPP [K4V]	-0.0618
GSAKRRLFGDDPP [E10D]	0.299
GSAKRRLFGEDPA [P13A]	0.231
GSAKRRLAGEDPP [F8A]	0.214
GSAKRRLFGENPP [D11N]	0.41
GSAKRRLFGTDPP [E10T]	-0.0242
GSAKRALFGEDPP [R6A]	-0.196
GSAKRRLIGEDPP [F8I]	-0.0328
GSAKRRLFGEDPV [P13V]	0.793
ISAKRRLFGEDPP [G1I]	1.26
GRAKRRLFGEDPP [S2R]	0.122
GSAKRRLFIEDPP [G9I]	0.0528
PSAKRRLFGEDPP [G1P]	-0.0631
GSDKRRLFGEDPP [A3D]	-0.473
GSAKRRLEGEDPP [F8E]	-0.465
GSNKRRLFGEDPP [A3N]	-0.271
GSAKNRLFGEDPP [R5N]	-0.212
GSAKRRLFLEDPP [G9L]	-0.452

Set 4
Target: ABI1, truncated, D143A, DHFR fusion (Arabidopsis thaliana)
Method: DHFR PCA, deep sequencing
Matrix: yeast
Notes: methotrexate growth selection, single substitutions
Added: (+)-ABA 2500 µM
Relative to: wild-type fitted maximum
Reading: higher = stronger binding
Starting sequence: PYL1, truncated, DHFR fusion (Arabidopsis thaliana); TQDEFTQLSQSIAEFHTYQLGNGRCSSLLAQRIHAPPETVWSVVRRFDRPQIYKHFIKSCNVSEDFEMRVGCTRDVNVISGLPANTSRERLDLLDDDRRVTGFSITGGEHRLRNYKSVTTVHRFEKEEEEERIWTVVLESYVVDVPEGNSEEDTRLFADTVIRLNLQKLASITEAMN
Change	relative binding score [%]
F5V	106
D3G	94.5
E129C	95.4
S80M	47.2
I133E	106
T86I	86.7
E64F	96.9
L166K	2.06
H110L	49
R49F	87.9
F47R	-11.3
D96K	80.5
S171W	88.2
S59V	94.1
M176C	90
K116G	86.2
G81N	80.3

Set 5
Target: Hepatocyte nuclear factor 3-alpha (Foxa1, Mus musculus, UniProt P35582, residues 1-468, full length assumed)
Method: EMSA with sequencing
Molecule type: double-stranded DNA, one strand shown
Matrix: in vitro
Concentration: 10 and 20 nM
Notes: whole designed probe, mean of two concentrations, ends assumed
Relative to: negative control set to 0
Reading: higher = stronger binding
Construct (chain): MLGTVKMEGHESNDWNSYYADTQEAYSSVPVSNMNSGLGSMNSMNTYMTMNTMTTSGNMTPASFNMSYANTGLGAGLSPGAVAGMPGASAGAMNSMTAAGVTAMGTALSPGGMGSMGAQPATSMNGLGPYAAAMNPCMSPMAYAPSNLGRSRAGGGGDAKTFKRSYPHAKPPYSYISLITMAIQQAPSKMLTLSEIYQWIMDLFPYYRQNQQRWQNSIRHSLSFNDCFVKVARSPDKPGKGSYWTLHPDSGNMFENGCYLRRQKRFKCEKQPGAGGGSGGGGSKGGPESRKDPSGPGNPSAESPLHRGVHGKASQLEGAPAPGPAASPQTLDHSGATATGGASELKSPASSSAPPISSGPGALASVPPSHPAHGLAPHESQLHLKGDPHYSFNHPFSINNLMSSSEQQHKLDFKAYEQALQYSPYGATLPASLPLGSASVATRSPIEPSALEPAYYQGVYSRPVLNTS
Sequence	normalised bound fraction [ratio]
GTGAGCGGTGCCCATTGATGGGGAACTTGAAATACTATAATATAAATTCTAATGAAATTTGAAATCATGTGGGCAAGTTAATTAAAAACAAAAGAATAAATGCTTGTCCATATTGCTTTATGTTTACATAGTTCATCTGGTAGAATAAATATTATTTTGAAAAAAGAAGGGCTCTTAGTGGGAAATACAATACCAAAGTTTAAAACATACTAGTTAAAATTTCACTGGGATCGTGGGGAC	0.496
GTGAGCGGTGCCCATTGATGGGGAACATATACCTTTATTGCATATTAACAATTTCATAATGTGTCAAATTTATCCCAAACTTCTAGCTAAAATCTTTAAGAGTGCTGTTAAAGATAATGTAATCTAGCACTATTTTCTTTACTTAGCGAACAAGATTGGCCGAGTAATGTCAATTATTTTGCAACATGTTCCATTAATCAGTATACATTAAGTATCACTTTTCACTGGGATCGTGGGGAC	0.0357
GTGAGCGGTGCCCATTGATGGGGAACATCTTCCCCCTCTTCCTTGCCCCACCAGCTCACCTTCCCGGGTTATTTGCAGATAGGAAAATAAATAAAGCCGGCATTCGTTAACCCTCTTCTGGCGCAAACTGCTGTTTGCTCTGGTCCTTTGGATGAATCATGGCGACGCCAGGCTCCGGGAGAGCAAAGCACCGTGTCAGGGCCATGATCCGGGGTGGCCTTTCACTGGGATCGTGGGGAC	0.386
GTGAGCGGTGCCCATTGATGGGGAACTTTTCATTTACTCTTGTTTTGTGTTTGAGTATAGACAGCTTTTCCCATCCTCCATCAGGGTCATTGTCCCACCTTCTCTGACTCACTTATTGTGTCAACAGAATTAAAAGAGCAGCCGGTGGACGTGTGTAGAGGCTGAAGGAGAGCTGTGTTGCTAGCTTTGTATTTGAACGGTTCGTACACAAACAGTTCTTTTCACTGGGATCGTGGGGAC	0.268
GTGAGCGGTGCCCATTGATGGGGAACATCTTCCCCCTCTTCCTTGCCCCACCAGCTCACCTTCCCGGGTTATTTGCAGATAGGAAAATAAATAAAGCCGGCATTCGTTAACCCTCTTCACGCGCATACTGCCAGAGCAAACAGATGAATCATGGTCCTTTGGCGACGCCAGGCTCCGGGAGAGCAAAGCACCGTGTCAGGGCCATGATCCGGGGTGGCCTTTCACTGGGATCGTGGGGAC	0.393
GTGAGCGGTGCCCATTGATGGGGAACATAATCATTAACTATGGGCTTTTTAAAAAGAATTTTTTCTTTACTTTGCTATTCTTTTCTTTTCTTTCTCATTCTTTTCTTTCCATTTTCAAAGTCATTTAAAGGACCAAGAGAAAATTTCCCATGAAAAATACATGTTTTTATTCTTTAGTTCAATTCTGCTCCTAAAATGTATAAAAGCCAATAGGATTCATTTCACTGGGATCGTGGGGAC	0.0409
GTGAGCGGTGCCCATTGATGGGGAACCTCATTCCTTGCTTCCGCCAATAATCTGACTAGTAAAGAAGTCACTGCATGCCACAAATTGTCAGTGCTGACTTCCTCAACAAGGAAGTATAAGTAAATAAATATTAATATATATGCAAATTCCGAGTGACTCAGATCTTGAGAATACCAACTCCTGATGCCAACTGATTGTCAGTCATGGCTACAACAGGAGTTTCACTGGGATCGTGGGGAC	0.4
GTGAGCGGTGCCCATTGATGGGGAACCACCGCGCTCGCACGGCTTTGTCCGTGCTACAAAGCAGCCTGTTAAACTATTGGAACTAATGCGCCGCAGCTGCGCGAGTGACTTCTGCTGCTTATGTACATAAAAAGTCCTGTAAGGGGGAGGGCTCCATCAGATGCCTGCTGCTGGGTTGTTTGGCTAGTCTTTCCATTTGCTTATTCCTGAATCCAAAGGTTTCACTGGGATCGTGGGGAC	0.339

Set 6
Target: Interferon regulatory factor 3, full length, phosphomimetic (IRF3, Homo sapiens, UniProt Q14653, residues 1-427, S386D/S396D/S398D/S402D/T404D/S405D)
UniProt Q14653, sequence (whole entry, unmodified, looked up): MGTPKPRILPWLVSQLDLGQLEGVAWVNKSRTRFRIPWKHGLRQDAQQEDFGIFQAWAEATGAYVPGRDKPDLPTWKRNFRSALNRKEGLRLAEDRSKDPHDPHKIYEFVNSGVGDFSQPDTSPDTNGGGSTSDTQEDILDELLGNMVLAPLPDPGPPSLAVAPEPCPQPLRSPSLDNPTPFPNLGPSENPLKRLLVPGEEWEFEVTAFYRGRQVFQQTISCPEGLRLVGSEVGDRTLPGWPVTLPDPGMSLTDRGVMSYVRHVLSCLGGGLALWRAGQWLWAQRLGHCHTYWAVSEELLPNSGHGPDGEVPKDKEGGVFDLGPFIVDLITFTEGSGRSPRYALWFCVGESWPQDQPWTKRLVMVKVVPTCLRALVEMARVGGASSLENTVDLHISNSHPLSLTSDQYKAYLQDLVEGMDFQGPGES
Method: protein-binding microarray
Molecule type: double-stranded DNA, one strand shown
Matrix: in vitro
Concentration: 2540 nM top
Notes: 60-bp whole probe
Added: salmon DNA 0.4 mg/ml
Relative to: random background probes
Reading: higher = stronger binding
Constant ends, left off below: GCCTAGCAC … GTCTTGATTCGCTTGACGCTGCTG
Sequence	fitted relative affinity [z-score]
TCAAATGACCTTCTCAGACTGTGCTAG	0.683
AGAAATTTTTTTTCTAACTAGTGCTAG	0.789
TTAAATATCGGGACTGGATTAGTGCTA	0.119
GACGATCTGAGTCTCGAGACGTGCTAG	0.00723
GACGGACTGGACTAACGGGACGTGCTA	-0.514
TTAGGTTTCCTTGCCCTTTAGTGCTAG	4.03
TCATTTTTCATTGTTTTACTGTGCTAG	1.87
TCAATTTTAACCCTTATACTGTGCTAG	0.831
TTATGTATCGGTTTCGGTTAGTGCTAG	8.43
GACGGCTTCGGTATCGGGACGTGCTAG	0.91
TTAGGTTTGGGGTATCGGTTAGTGCTA	0.18
TTAGGTATCGGGTTTCGGCTAGTGCTA	2.42
GACGATATCAGGTATCGAGACGTGCTA	0.628
GACGGACTGGACTTTCGGGATGTGCTA	0.0852
TCAAGTTTATTTATTTTACTGTGCTAG	0.0753
CTAGTTGTACTTTCTATCTCTGTGCTA	3.4
GACGGTCCCCTTATCCTGACGTGCTAG	1.39
TTAGATATCGGGTTTCGAGTAGTGCTA	0.74
TTAGATTTTTTTTCCTAATTGTGCTAG	1.72
GACGATATCAGTCCCGAGACGTGCTAG	0.223

Repeated from above (set 2):
Sequence	E-score
AATATAGG	0.254
CATGATCA	0.256
ATATCTCA	0.331
CATTGAAA	0.253
ATAACAGA	0.358
AGGTCAAC	0.262
AGGTATTA	0.278
ATCCGTAC	0.274
GATGAATA	0.332
ATGTCAAT	0.28
GACATTAA	0.251
GTACAAAA	0.27
AGTATCTA	0.362
TGATAACA	0.301
TACAGTCA	0.312
